Assay results pooled from the literature.
± gives the spread as reported.
U2AF2: U2AF2 148-342 (Homo sapiens, UniProt P26368)
UniProt P26368, sequence (whole entry, looked up): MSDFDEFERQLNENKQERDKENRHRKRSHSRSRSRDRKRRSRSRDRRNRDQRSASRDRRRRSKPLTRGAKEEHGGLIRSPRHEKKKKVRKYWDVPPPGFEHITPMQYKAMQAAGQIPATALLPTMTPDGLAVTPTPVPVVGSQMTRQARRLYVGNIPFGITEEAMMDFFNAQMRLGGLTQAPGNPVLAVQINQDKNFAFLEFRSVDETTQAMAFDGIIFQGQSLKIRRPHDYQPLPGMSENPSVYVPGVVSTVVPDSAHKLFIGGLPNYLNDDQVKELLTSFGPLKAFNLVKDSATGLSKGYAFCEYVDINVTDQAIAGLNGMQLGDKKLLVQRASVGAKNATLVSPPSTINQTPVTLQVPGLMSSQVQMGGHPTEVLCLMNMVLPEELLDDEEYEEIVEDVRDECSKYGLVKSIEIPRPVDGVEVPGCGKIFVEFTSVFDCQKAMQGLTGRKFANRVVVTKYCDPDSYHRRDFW
B1: SCO6712 Y229F (Streptomyces coelicolor, UniProt Q9XAL8); chain AKGITARTAPAGGEVRHLKMYAEKLADGQMGYGFEKGKASVPGPLIEVNEGDTLHIEFTNTMDVRASLHVHGLDYEISSDGTAMNKSDVEPGGTRTYTWRTHKPGRRDDGTWRPGSAGYWHYHDHVVGTEHGTGGIRNGLYGPVIVRRKGDVLPDATHTIVFNDMTINNRKPHTGPDFEATVGDRVEIVMITHGEFYHTFHMHGHRWADNRTGILTGPDDPSRVIDNKITGPADSFGFQIIAGEGVGAGAWMYHCHVQSHSDMGMVGLFLVKKPDGTIPGYEPHEHGGATAKSGESGEPTGGAAAHEHEH
B2: enzyme D423N/R186H/R7G (Gallus gallus, UniProt A0A8V0ZKC1); chain MAGPSGGARRLLLPLRLRPPPPIGPEPPCRTGSSAAAAAAGPARLKGPAELPGPGLLRTFVWLFLRGYLLHTHRLQLMSRRIYGPIWKSTFGHYQNINIGSPVVLEQLLRQEGKYPMRSDMALWKEHRDTRRLPYGPFTEEGERWYRLRQVLNKRLLKPSEAVLYADAIGEVVSDLMVRLRDERSHSPSGVLVGDVANLLYRFALEGISYILFETRIGCLKQQVPPETQHFIDSINLMFKNSIFATVLPRWSRKVLPFWDRYLDSWDTIFAFGKRLIDRKMKELEGHVEKGKEVSQGYLSYLLASGHLSLDEVYGSVAELLLAGVDTTSNTLCWALYHLSRDLGIQDTLYQELKAVVPPDRFPGAEDIPKMPMLRAVIKETLRVYPVVPTNARVFYEKDIVIGDYLFPKNTLFVLAHYAMSHNETYFPEPERFLPQRWLRGHGSPHHPFSSIPFGYGVRACVGRRIAELEMHLALARIIQAYEVRPDPRGVEVTSVSRIVLVADKPINLEFIARPGAP
B3: enzyme (Bacillus subtilis, UniProt P14949); chain AIVKATDQSFSAETSEGVVLADFWAPWCGPCKMIAPVLEELDQEMGDKLKIVKIDVDENQETAGKYGVMSIPTLLVLKDGEVVETSVGFKPKEALQELVNKHL
B4: nfsB (Escherichia coli, UniProt P38489); chain MDIISVALKRHSTKAFDASKKLTPEQAEQIKTLLQYSPSSTNSQPWHFIVASTEEGKARVAKSAAGNYVFNERKMLDASHVVVFCAKTAMDDVWLKLVVDQEDADGRFATPEAKAANDKGRKFFADMHRKDLHDDAEWMAKQVYLNVGNFLLGVAALGLDAVPIEGFDAAILDAEFGLKEKGYTSLVVVPVGHHSVEDFNATLPKSRLPQNITLTEV
B5: enzyme Y136L/Y168I (Bradyrhizobium diazoefficiens, UniProt Q45222); chain MIQTERAVQQVLEWGRSLTGFADEHAVEAVRGGQYILQRIHPSLRGTSARTGRDPQDETLIVTFYRELALLFWLDDCNDLGLISPEQLAAVEQALGQGVPCALPGFEGCAVLRASLATLAYDRRDYAQLLDDTRCLSAALRAGHAQAVAAERWSYAEYLHNGIDSIAIANVFCCLSLLWGLDMATLRARPAFRQVLRLISAIGRLQNDLHGCDKDRSAGEADNAVILLLQRYPAMPVVEFLNDELAGHTRMLHRVMAEERFPAPWGPLIEAMAAIRVQYYRTSTSRYRSDAVRGGQRAPA
B6: enzyme (UniProt P0DY30); chain ESPWIGVHFMVYTDKMLDQLAEQLPALSKRGVTHLILEINYHFAYKSHPELAPTNGITVVGAKKFADTARAHHIEIIPQINCLGHQSWKQNNAALLKHYPQFDETPGAYPDNKDIYCRSWCPQHPEVNRVVFALIDELIDAFEAKAFHVGMDEVFLIASEHCERCRGGDPAALFAKAVNDLHGHIVGKRGVQMLMWGDRLLDAEQTGYGKWEASGNGTAPAIDRIPKDIVLCDWHYEKRDRYPSLAVFLDKGFRVWPAGWKKPEAAEAFAAAARGCQNPRLLGYLCTTWGAVEIPNLADWPALLRPIEKIIAP
B7: enzyme (UniProt A0A6P1VWL4); chain QTSYQPTPDNLAARKAFQDDKFGLFIHWGVYSILGDGEWVMNQRQIPIKDYEKLPTFFNPTAFDAKEWVTMAKNAGMKYITITSKHHDGFAMYDSKVSDYDIVDRTPYKKDVLKALADECRAQGIKLFFYHSHLDWHHPDYFPRGQTGKTAGRPESGDFDKYLTYMDTQLSELLTNYGPVGGIWFDGWWDQSAHDKNDPHKTVVDWKLDRTYSLIHKLQPAALIGNNHHVAPFPGEDFQMFEKDLPGQNKTGFSGESVIGQLPLETCETMNGAWGFNIKDNRYKSTKDLVQYLVKAAGHNANFLLNVGPMPNGKIQPEFVKTLAEVGQWMQKNGETIYGTRGGPVPARDWGVTTAVGNRVFVHILNWEDRQLTLPPVSGKIRSAKLFADKSPVKVVQTPEGIVLTMNSAPSADATDTIIELEMAPEVAKK
B8: aspC A106G/A218G/F210I/I29V/I33V/I68L/I71L/N30D/N64T/S135A/T100S/V136I/V375I (Escherichia coli, UniProt P00509); chain MFENITAAPADPILGLADLFRADERPGKVDLGVGVYKDETGKTPVLTSVKKAEQYLLENETTKTYLGLDGLPEFGRCTQELLFGKGSALINDKRARTAQSPGGTGGLRVAADFLAKNTSVKRVWVSNPSWPNHKAIFNSAGLEVREYAYYDAENHTLDFDALINSLNEAQAGDVVLFHGCCHNPTGIDPTLEQWQTLAQLSVEKGWLPLIDFAYQGFGRGLEEDAEGLRAFAAMHKELIVASSYSKNFGLYNERVGACTLVAADSETVDRAFSQMKAAIRANYSNPPAHGASVVATILSNDALRAIWEQELTDMRQRIQRMRQLFVNTLQEKGANRDFSFIIKQNGMFSFSGLTKEQVLRLREEFGVYAVASGRINVAGMTPDNMAPLCEAIVAVL
B9: enzyme (Pseudomonas putida, UniProt Q88KZ0); chain MWKVPVTQKPDQCLGEWIDREALAEAMIPLIGQLYRNNNVVSSIYGRSLINRSVISILKAHRFARHRQTDETELSVHETFPLLKAMSELKLGAASVDLGKLANKFKQEGNGRTAEQFVREELADVVGQQNASARKGTDVVLYGFGRIGRLLARILIEKTGGGDGLRLRAIVVRKGAENDLVKRASLLRRDSVHGPFDGTITIDEANNTITANGNLIQVIYAKSPSEVDYTQYGIDNALIVDNTGVWRDADGLGQHLACPGAARVILTAPGKGALKNIVHGINHGDITADDKIISAASCTTNAIVPVLKAINDQYGIVNGHVETVHSFTNDQNLIDNFHKGSRRGRAAPLNMVITETGAATAAAKALPVLKGKLTGNAIRVPTPNVSMAILNLNLEKATTRDEINEYLRQTAMHSELHKQIDYVASQEVVSTDFVGSRHAGVVDAEATIANDNRVVLYVWYDNEFGYSCQVVRVMEDMAGVNPPAFPR
B10: enzyme (Arabidopsis thaliana, UniProt Q9FJN8); chain TSGGGYGDPSQKIDYVFKVVLIGDSAVGKSQILARYARDEFSLDSKATIGVEFQTRTLVIDHKSVKAQIWDTAGQERYRAVTSAYYRGAVGAMLVYDITRRQTFDHIPRWLEELRAHADKNIVIILIGNKSDLVDQRAIPTEDAKEFAEKEGLFFLETSAFNATNVESAFSTVLTEIFNIVNKKSLAASEDQENGNPGSLAGKKIDIVPGPGQVIPNKSNMCCNS
UniProt O31662, sequence (whole entry, looked up): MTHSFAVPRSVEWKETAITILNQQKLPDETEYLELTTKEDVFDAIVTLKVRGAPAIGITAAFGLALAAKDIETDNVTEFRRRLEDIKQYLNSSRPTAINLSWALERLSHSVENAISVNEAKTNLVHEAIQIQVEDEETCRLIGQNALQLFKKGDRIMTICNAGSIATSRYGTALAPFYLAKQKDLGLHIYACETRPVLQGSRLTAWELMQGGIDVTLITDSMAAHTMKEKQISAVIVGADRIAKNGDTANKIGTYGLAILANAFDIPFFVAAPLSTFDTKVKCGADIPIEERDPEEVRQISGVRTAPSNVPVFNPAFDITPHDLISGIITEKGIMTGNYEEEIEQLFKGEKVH
UniProt P13393, sequence (whole entry, looked up): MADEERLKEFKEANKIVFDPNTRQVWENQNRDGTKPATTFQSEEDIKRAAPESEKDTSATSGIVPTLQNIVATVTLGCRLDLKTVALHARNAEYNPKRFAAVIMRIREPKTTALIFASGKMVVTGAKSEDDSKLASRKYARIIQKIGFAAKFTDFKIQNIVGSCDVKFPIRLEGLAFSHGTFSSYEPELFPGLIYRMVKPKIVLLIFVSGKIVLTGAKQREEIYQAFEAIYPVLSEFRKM

B1 (SCO6712 Y229F) — kcat (CCn1c(=NN=c2sc3cc(S(=O)(=O)O)ccc3n2CC)sc2cc(S(=O)(=O)O)ccc21; steady-state kinetics; pH 7, 37 °C, NaCl 150 mM, added: O2 cosubstrate): 2.13 ± 0.06 s⁻¹
CUGCAAUUUUUUUUUUUUUAUUUUUCAUUUCCAGUA (ssRNA) — Kd (U2AF2; MST; RNA): 5.34 ± 1.61 µM
B2 (enzyme D423N/R186H/R7G) — kcat (C=C1CC[C@H](O)C/C1=C/C=C1\CCC[C@]2(C)[C@@H]([C@H](C)CCCC(C)C)CC[C@@H]12; steady-state kinetics; pH 7.4, 37 °C, not purified): 0.0108 ± 0.00106 s⁻¹
B3 (enzyme) — kcat (N[C@@H](CSSC[C@H](N)C(=O)N[C@H]1[C@@H](O[C@@H](CC(=O)O)C(=O)O)O[C@H](CO)[C@@H](O)[C@@H]1O)C(=O)N[C@H]1[C@@H](O[C@@H](CC(=O)O)C(=O)O)O[C@H](CO)[C@@H](O)[C@@H]1O; steady-state kinetics; pH 8): 2.54 s⁻¹
B4 (nfsB) — kcat (NC(=O)N/N=C/c1ccc([N+](=O)[O-])o1; steady-state kinetics; pH 7, 37 °C, added: NADPH 110 µM): 41 ± 3 s⁻¹
B5 (enzyme Y136L/Y168I) — kcat (C=C1CC[C@@H]2C(C)(C)CCC[C@@]2(C)[C@@H]1CC/C(C)=C/COP(=O)(O)OP(=O)(O)O; steady-state kinetics): 0.09 ± 0.00433 s⁻¹
Tropomyosin alpha-4 chain (human) — log2 fold change (PP6C (human); co-immunoprecipitation, IP-MS; CYB5R4 knockout cells; concentration not given; baseline: CYB5R4 knockout over parental): 0.55
B6 (enzyme) — kcat (CC(=O)N[C@H]1[C@H](Oc2ccc([N+](=O)[O-])cc2)O[C@H](CO)[C@@H](O[C@@H]2O[C@H](CO)[C@H](O)[C@H](O)[C@H]2O)[C@@H]1O; steady-state kinetics; pH 6, 50 °C): 8.9 ± 0.3 s⁻¹
HNL C81L/E79H/G176S/H103V/K236M/N104A/T11G/V106F (Hevea brasiliensis) — kcat (CC(=O)Oc1ccc([N+](=O)[O-])cc1; steady-state kinetics; pH 7.2, 22 °C): 0.065 ± 0.00833 s⁻¹
TCCTGAAGAGGCGCCCTAGCTTGGTCCTATCGTCGTCAAGTCAATCGGTCC (dsDNA; 5'-amino-C6 primer) — Kd (SPT15 full length assumed (Saccharomyces cerevisiae, UniProt P13393); array; double-stranded DNA, one strand shown; TBP alone): 0.00087 ± 5e-05 µM
B7 (enzyme) — kcat (C[C@@H]1O[C@@H](Oc2ccc([N+](=O)[O-])cc2Cl)[C@@H](O)[C@H](O)[C@@H]1O; steady-state kinetics; pH 6.4, 37 °C): 70.7 s⁻¹
enzyme (Thermothielavioides terrestris, UniProt G2R650) — kcat (C=Cc1ccc(O)c(OC)c1; steady-state kinetics; pH 8, 45 °C): 4.63 ± 0.385 s⁻¹
enzyme (Mycobacteroides abscessus, UniProt B1MGE0) — kcat (C/C(=C\C=C(/O)C(=O)O)C(=O)CC[C@@H]1C(=O)CC[C@]2(C)C(=O)CC[C@@H]12; steady-state kinetics; pH 7.5, 25 °C): 9 s⁻¹
B8 — kcat (O=C(O)C(=O)Cc1ccccc1; steady-state kinetics; pH 7.5, 25 °C, added: PLP 20 µM, ammonium acetate 10 mM): 98 s⁻¹
B9 (enzyme) — kcat (O=C[C@H](O)COP(=O)(O)O; steady-state kinetics; added: NADP+): 9 ± 0.3 s⁻¹
B10 (enzyme) — kcat (Nc1nc2c(ncn2[C@@H]2O[C@H](COP(=O)(O)OP(=O)(O)OP(=O)(O)O)[C@@H](O)[C@H]2O)c(=O)[nH]1; steady-state kinetics; pH 7.5, 30 °C): 0.0367 s⁻¹
mtnA (Bacillus subtilis, UniProt O31662) — kcat (O=P(O)(O)O[C@H]1O[C@H](CO)[C@@H](O)[C@H]1O; steady-state kinetics; pH 7.5, 25 °C): 0.087 ± 0.005 s⁻¹
gdh E198G/N192S/N97F (Bacillus subtilis) — kcat (NC(=O)c1ccc[n+]([C@@H]2O[C@H](COP(=O)(O)OP(=O)(O)OC[C@H]3O[C@@H](n4cnc5c(N)ncnc54)[C@H](O)[C@@H]3O)[C@@H](O)[C@H]2O)c1; steady-state kinetics; pH 7, 50 °C): 20.4 ± 0.651 s⁻¹
UAUCUUACU (ssRNA) — Kd (U2AF2; sequencing of bound RNA; RNA; motif only): 3.31 µM

Some of these lines once more:
B9 (enzyme) — kcat (O=C[C@H](O)COP(=O)(O)O; steady-state kinetics; added: NADP+): 9 ± 0.3 s⁻¹
B1 (SCO6712 Y229F) — kcat (CCn1c(=NN=c2sc3cc(S(=O)(=O)O)ccc3n2CC)sc2cc(S(=O)(=O)O)ccc21; steady-state kinetics; pH 7, 37 °C, NaCl 150 mM, added: O2 cosubstrate): 2.13 ± 0.06 s⁻¹
